Measurements from different studies.
Parts stem from different laboratories: compare values within a part only. Changes are numbered by the printed parent chain.
Chain of UniProt O15294 (whole entry, looked up): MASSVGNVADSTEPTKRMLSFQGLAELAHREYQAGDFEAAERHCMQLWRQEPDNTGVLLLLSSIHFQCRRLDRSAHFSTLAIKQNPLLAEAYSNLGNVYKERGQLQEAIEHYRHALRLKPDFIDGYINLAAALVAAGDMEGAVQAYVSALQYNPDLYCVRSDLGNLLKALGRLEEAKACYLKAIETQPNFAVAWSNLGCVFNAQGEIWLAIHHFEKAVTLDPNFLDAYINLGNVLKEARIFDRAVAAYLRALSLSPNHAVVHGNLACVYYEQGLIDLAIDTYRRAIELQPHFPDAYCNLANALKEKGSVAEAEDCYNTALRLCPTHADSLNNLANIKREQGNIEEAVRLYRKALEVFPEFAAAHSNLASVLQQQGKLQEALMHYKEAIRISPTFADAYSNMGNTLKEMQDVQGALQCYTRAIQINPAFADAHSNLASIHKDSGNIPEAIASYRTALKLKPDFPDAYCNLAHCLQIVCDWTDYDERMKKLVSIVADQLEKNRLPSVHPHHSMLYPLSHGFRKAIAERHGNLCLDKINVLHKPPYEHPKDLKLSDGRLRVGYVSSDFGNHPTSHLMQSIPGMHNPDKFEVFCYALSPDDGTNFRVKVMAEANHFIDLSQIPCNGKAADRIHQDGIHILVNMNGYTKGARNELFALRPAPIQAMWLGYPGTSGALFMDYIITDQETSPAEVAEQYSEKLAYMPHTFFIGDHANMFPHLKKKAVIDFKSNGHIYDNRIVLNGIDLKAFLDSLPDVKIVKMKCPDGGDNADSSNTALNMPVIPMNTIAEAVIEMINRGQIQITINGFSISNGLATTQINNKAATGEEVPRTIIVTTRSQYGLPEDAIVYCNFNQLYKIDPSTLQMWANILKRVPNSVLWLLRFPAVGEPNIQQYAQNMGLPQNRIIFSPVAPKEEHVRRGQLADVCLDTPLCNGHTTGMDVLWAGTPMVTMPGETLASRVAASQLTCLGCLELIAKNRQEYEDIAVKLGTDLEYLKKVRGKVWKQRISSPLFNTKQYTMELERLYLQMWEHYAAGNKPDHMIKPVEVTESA

Sample 1
Target: MAFG, bZIP domain (human)
Method: DHFR protein complementation
Medium: yeast
Notes: single substitutions, most at no-binding floor
Reference: wild-type JUN-FOS pair
Reading: higher = stronger binding
Quantity: binding fitness
Parent: JUN, bZIP domain (human); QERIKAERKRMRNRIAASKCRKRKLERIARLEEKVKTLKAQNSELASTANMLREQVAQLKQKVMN; partner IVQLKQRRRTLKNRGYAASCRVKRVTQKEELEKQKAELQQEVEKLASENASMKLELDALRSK
Change = A29F; value = -1.38 natural log
Change = L31I; value = -1.49 natural log
Change = K39V; value = -1.45 natural log
Change = A46Y; value = -1.51 natural log
Change = R53W; value = -1.42 natural log
Change = A40R; value = -1.3 natural log
Change = S47I; value = -1.4 natural log
Change = L31E; value = -1.45 natural log

Sample 2
Molecule: H2BC12 (Homo sapiens, UniProt O60814)
Method: cross-linking MS
Notes: hits only
Quantity: interaction screen
partner = H2BC9 (Homo sapiens, UniProt Q93079); value = cross-linked
partner = H2AC21 (Homo sapiens, UniProt Q8IUE6); value = cross-linked
partner = H2AC11 (Homo sapiens, UniProt P0C0S8); value = cross-linked
partner = H2AC7 (Homo sapiens, UniProt P20671); value = cross-linked

Other studies, line by line
Molecule = SRP14 (Homo sapiens, UniProt P37108); tested on = SRP9 (Homo sapiens, UniProt P49458); assay = cross-linking MS; setting = hits only; quantity = interaction screen; value = cross-linked
Molecule = YAHTHMYNHPAIYTH; tested on = UDP-N-acetylglucosamine--peptide N-acetylglucosaminyltransferase 110 kDa subunit (OGT, Homo sapiens, UniProt O15294); assay = binding, phage display NGS; test system = peptide; how to read = reference: input library; quantity = minimum log2 enrichment ratio; value = 1.77
Molecule = VPS11 (Homo sapiens, UniProt Q9H270); tested on = VPS18 (Homo sapiens, UniProt Q9P253); assay = cross-linking MS; setting = hits only; quantity = interaction screen; value = cross-linked
Molecule = PhoQ, residues 284 288 289 292 302 303 QWQEDG; tested on = PhoP, residues 12 14 15 18 19 SMASL (Escherichia coli, UniProt P23836); assay = Sort-seq, item: YFP reporter; test system = E. coli; setting = PhoQ-PhoP variant library, with: 10 µM Mg2+; how to read = reference: high Mg2+ state, higher = stronger signaling; quantity = fold induction; value = 0.518
Molecule = CCT8 (Homo sapiens, UniProt P50990); tested on = CCT7 (Homo sapiens, UniProt Q99832); assay = cross-linking MS; test system = cell fractions; setting = with: DHSO; quantity = cross-linked residues; value = E61 to D70
Molecule = VARS1 (Homo sapiens, UniProt P26640); tested on = CCDC88C (Homo sapiens, UniProt Q9P219); assay = cross-linking MS; test system = cell fractions; setting = with: DSSO; quantity = cross-linked residues; value = K552 to T333

A few entries again (sample 1):
Change = K39V; value = -1.45 natural log
Change = A46Y; value = -1.51 natural log
